{"data": "Experimental data pooled from the literature", "note": "Parts stem from different laboratories: compare values within a part only. Positions count from the first letter of the parent shown."}
{"data": "Study 1", "target": "CCNE2, cyclin fold, Cln2 fusion (human)", "method": "yeast growth competition, sequencing", "sample": "yeast", "setting": "strong parent motif", "baseline": "not given", "reading": "higher = stronger binding", "starting sequence": "RBL2 docking peptide (human); STTRRRLFVENDS"}
{"Change": "STTRRRLFVDNDS [E10D]", "normalised enrichment score": 5.45}
{"Change": "STTRRRLFVENDK [S13K]", "normalised enrichment score": 4}
{"Change": "STTFRRLFVENDS [R4F]", "normalised enrichment score": 1.85}
{"Change": "STTRPRLFVENDS [R5P]", "normalised enrichment score": 1.18}
{"Change": "STTRRRLFVQNDS [E10Q]", "normalised enrichment score": 2.22}
{"Change": "STFRRRLFVENDS [T3F]", "normalised enrichment score": 4.78}
{"Change": "STTRRDLFVENDS [R6D]", "normalised enrichment score": 0.362}
{"Change": "STTRFRLFVENDS [R5F]", "normalised enrichment score": 0.185}
{"Change": "SNTRRRLFVENDS [T2N]", "normalised enrichment score": 4.4}
{"Change": "ETTRRRLFVENDS [S1E]", "normalised enrichment score": 2.7}
{"Change": "STTRRRLFVEPDS [N11P]", "normalised enrichment score": 4.56}
{"Change": "STTRRKLFVENDS [R6K]", "normalised enrichment score": 3.57}
{"Change": "STTRRWLFVENDS [R6W]", "normalised enrichment score": 0.773}
{"Change": "SWTRRRLFVENDS [T2W]", "normalised enrichment score": 4.13}
{"Change": "STTRRRSFVENDS [L7S]", "normalised enrichment score": -0.0945}
{"Change": "YTTRRRLFVENDS [S1Y]", "normalised enrichment score": 4.01}
{"Change": "STTRRRLFVENNS [D12N]", "normalised enrichment score": 3.29}
{"Change": "STTRRRLFQENDS [V9Q]", "normalised enrichment score": 4.41}
{"Change": "STTRRRLFVGNDS [E10G]", "normalised enrichment score": 3.05}
{"Change": "SCTRRRLFVENDS [T2C]", "normalised enrichment score": 4.13}
{"Change": "STTRRRLFSENDS [V9S]", "normalised enrichment score": 3.7}
{"Change": "STTRRRLFKENDS [V9K]", "normalised enrichment score": 3.4}
{"Change": "STTRRRNFVENDS [L7N]", "normalised enrichment score": -0.639}
{"Change": "STRRRRLFVENDS [T3R]", "normalised enrichment score": 0.889}
{"Change": "ATTRRRLFVENDS [S1A]", "normalised enrichment score": 3.61}
{"data": "Study 2", "target": "Histone acetyltransferase KAT6A, both winged helices, GST fusion (KAT6A, Homo sapiens, UniProt Q92794, residues 1-181)", "method": "protein binding microarray", "form": "double-stranded DNA, one strand shown", "sample": "in vitro", "tested at": "not given", "setting": "8-mer, flanks averaged, mean of 2 arrays, mostly near background", "baseline": "not given", "reading": "higher = stronger binding", "Construct (chain)": "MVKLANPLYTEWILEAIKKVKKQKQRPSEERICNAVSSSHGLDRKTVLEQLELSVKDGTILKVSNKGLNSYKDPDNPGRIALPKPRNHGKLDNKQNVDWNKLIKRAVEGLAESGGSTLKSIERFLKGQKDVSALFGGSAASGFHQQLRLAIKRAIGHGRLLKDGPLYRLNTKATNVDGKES"}
{"Sequence": "ACCCGCAC", "E-score": 0.16}
{"Sequence": "CATAGCCA", "E-score": -0.166}
{"Sequence": "ATGTTAGA", "E-score": -0.217}
{"Sequence": "GCCAGATA", "E-score": -0.173}
{"Sequence": "CCGTACCA", "E-score": 0.161}
{"Sequence": "GTTGGCGA", "E-score": 0.141}
{"Sequence": "GATAGAGC", "E-score": 0.0613}
{"Sequence": "GCTCGGTA", "E-score": 0.141}
{"Sequence": "ACACCGTA", "E-score": 0.202}
{"Sequence": "AATGACGG", "E-score": 0.249}
{"Sequence": "CATGCGTA", "E-score": 0.142}
{"Sequence": "CGCACCGA", "E-score": 0.0952}
{"Sequence": "AATCTTAT", "E-score": -0.0295}
{"Sequence": "AAACTAGG", "E-score": -0.161}
{"Sequence": "CAACGTTG", "E-score": 0.0917}
{"Sequence": "TATCTTCA", "E-score": -0.0303}
{"Sequence": "ATCCCGCA", "E-score": 0.148}
{"Sequence": "TCATTCCA", "E-score": -0.0862}
{"Sequence": "CTTGCTCA", "E-score": -0.0693}
{"Sequence": "CCGGGTTC", "E-score": 0.292}
{"Sequence": "GGAGAGCA", "E-score": -0.16}
{"Sequence": "AACCCCCC", "E-score": -0.254}
{"data": "Study 3", "target": "Interferon regulatory factor 7, full length, phosphomimetic (IRF7, Homo sapiens, UniProt Q92985, residues 1-503, S101K/S471D/S472D/S475D/S476D/S477D/S483D/S484D/S487D)", "method": "protein-binding microarray", "form": "double-stranded DNA, one strand shown", "sample": "in vitro", "tested at": "250 nM", "setting": "60-bp whole probe", "together with": "salmon DNA 0.4 mg/ml", "baseline": "random background probes", "reading": "higher = stronger binding", "all sequences stand within": "GCCTAGCAC … GTCTTGATTCGCTTGACGCTGCTG", "sequence of UniProt Q92985 (whole entry, unmodified, looked up)": "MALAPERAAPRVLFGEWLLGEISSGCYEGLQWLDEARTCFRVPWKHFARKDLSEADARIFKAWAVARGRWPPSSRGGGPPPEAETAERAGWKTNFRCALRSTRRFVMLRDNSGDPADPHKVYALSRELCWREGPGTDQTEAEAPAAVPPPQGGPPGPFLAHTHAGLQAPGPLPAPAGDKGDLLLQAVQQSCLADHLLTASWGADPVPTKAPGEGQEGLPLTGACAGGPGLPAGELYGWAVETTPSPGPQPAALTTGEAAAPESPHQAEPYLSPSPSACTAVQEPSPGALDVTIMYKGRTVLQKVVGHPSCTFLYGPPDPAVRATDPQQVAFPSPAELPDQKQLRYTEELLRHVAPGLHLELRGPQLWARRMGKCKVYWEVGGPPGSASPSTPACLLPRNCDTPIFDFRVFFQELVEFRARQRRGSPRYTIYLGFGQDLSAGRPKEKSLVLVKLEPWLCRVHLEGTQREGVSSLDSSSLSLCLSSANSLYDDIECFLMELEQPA"}
{"Sequence": "TTAGGTTTCCTTACCCTTTAGTGCTAG", "log fluorescence": "1.09 z-score"}
{"Sequence": "TTAGTTATCAGTATCGATTAGTGCTAG", "log fluorescence": "1.4 z-score"}
{"Sequence": "GACGGTCTCGGTCTCGGGTCGTGCTAG", "log fluorescence": "2 z-score"}
{"Sequence": "TTAGGTCTCGTACTGCTTTAGTGCTAG", "log fluorescence": "1.07 z-score"}
{"Sequence": "CACGATATCAGTTTCGAGACGTGCTAG", "log fluorescence": "4.33 z-score"}
{"Sequence": "GTTGTACTTTCTATCTCTGTGTGCTAG", "log fluorescence": "1.01 z-score"}
{"Sequence": "GACGATCTCAATCTCGAGACGTGCTAG", "log fluorescence": "0.0248 z-score"}
{"Sequence": "GACGTTTTCGGGTTTCGGGACGTGCTA", "log fluorescence": "5.64 z-score"}
{"Sequence": "GTAGGTCTCGGTTTCGGTTAGTGCTAG", "log fluorescence": "10.3 z-score"}
{"Sequence": "GACGGACTGCTTTTCATGACGTGCTAG", "log fluorescence": "-0.233 z-score"}
{"Sequence": "GACGGACTGGACTATCGGAACGTGCTA", "log fluorescence": "-0.532 z-score"}
{"Sequence": "GACGAACTGAGTCTCAAGACGTGCTAG", "log fluorescence": "-0.133 z-score"}
{"Sequence": "GACGAACTGAGTCTCGAAACGTGCTAG", "log fluorescence": "0.683 z-score"}
{"Sequence": "GGCCCTTTGCTTTCCTGATGGTGCTAG", "log fluorescence": "-0.122 z-score"}
{"Sequence": "GACGCTCTCCTACTGCTGACGTGCTAG", "log fluorescence": "0.0102 z-score"}
{"Sequence": "GACGGTTGCGACTTTCGGGACGTGCTA", "log fluorescence": "0.309 z-score"}
{"Sequence": "TTTTTTTTTTTTTTTGGAATGTGCTAG", "log fluorescence": "0.697 z-score"}
{"Sequence": "GAAGGTTTCCTTCTCCTGACGTGCTAG", "log fluorescence": "2.15 z-score"}
{"Sequence": "CCAGTGCTTGCTCCCCTGCAGTGCTAG", "log fluorescence": "-0.934 z-score"}
{"data": "Study 4", "target": "Phosphate system positive regulatory protein PHO4, full length, GST-tagged (PHO4, Saccharomyces cerevisiae, UniProt P07270, residues 1-312)", "method": "competition protein-binding microarray", "form": "double-stranded DNA, one strand shown", "sample": "in vitro", "tested at": "2 µM", "setting": "whole 60-bp probe, lowest competitor level", "together with": "Cbf1 competitor, 0.05 µM", "reading": "higher = stronger binding", "Construct (chain)": "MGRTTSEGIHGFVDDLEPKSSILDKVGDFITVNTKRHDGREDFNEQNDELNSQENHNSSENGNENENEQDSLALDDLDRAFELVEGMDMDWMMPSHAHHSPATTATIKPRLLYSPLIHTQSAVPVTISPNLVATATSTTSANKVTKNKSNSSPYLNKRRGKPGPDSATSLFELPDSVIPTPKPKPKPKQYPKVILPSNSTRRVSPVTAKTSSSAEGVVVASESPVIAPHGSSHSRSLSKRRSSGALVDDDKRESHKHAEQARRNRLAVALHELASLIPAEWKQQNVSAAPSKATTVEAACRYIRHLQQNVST"}
{"Sequence": "CGGGGTTAAGTTTGGTCTGTGGGTGGCTTGCAGCAGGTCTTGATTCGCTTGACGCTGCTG", "fluorescence intensity": "4430 a.u."}
{"Sequence": "TGCGCAACAACTTTTCACGTGAGTTTATGTCTAGAAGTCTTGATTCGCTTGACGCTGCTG", "fluorescence intensity": "11000 a.u."}
{"Sequence": "TTTGTTTTCATCTGGGTTGTGACAGTTGATGATAACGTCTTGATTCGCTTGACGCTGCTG", "fluorescence intensity": "4260 a.u."}
{"Sequence": "GGCAAAATCAATCTTGACGTGCCAGATATGTTAAAAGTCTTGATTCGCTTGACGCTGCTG", "fluorescence intensity": "5850 a.u."}
{"Sequence": "CTTTCCCGATCTTGCATAGTGGGTGTAGCACATTTGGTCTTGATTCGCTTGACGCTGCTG", "fluorescence intensity": "5040 a.u."}
{"Sequence": "GAGCAGAGTGAAAAGCACGCAAAGAGACATAGTCGGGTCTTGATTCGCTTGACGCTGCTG", "fluorescence intensity": "5740 a.u."}
{"Sequence": "CGCAATTTCCTTTATCGAACATATTGGGTAAACAACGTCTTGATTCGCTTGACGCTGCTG", "fluorescence intensity": "3680 a.u."}
{"Sequence": "TTCTGAATGGTGTTGGTCGTGGCCGTACCGATTTATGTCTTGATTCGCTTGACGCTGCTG", "fluorescence intensity": "6560 a.u."}
{"Sequence": "GAGGCACTGCCTCTCCGCGTGAATGTCACTGAGTCGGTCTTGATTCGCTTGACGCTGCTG", "fluorescence intensity": "5870 a.u."}
{"Sequence": "CGTCCTAGCGATTGAAACGTGGGTGCCATGAGGAAGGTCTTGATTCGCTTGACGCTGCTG", "fluorescence intensity": "13700 a.u."}
{"Sequence": "AACCTAGAGCTTCGTCACGGGGGCCTTGTCCGACTTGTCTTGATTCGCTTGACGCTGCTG", "fluorescence intensity": "7130 a.u."}
{"Sequence": "CATACCCAACCTTGCGAAGTGGGTGAAGATATTTGTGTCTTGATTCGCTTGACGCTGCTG", "fluorescence intensity": "4040 a.u."}
{"Sequence": "CCGAGGTTTGTTGGGTACGTGCAAAAGCGCCTGGGCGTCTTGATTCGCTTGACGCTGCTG", "fluorescence intensity": "6150 a.u."}
{"Sequence": "TAATACGGGCATGAACGCGTGCAAACAACTCGTCCTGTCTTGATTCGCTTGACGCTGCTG", "fluorescence intensity": "8490 a.u."}
{"Sequence": "AAGTTTGCTGAGGACATCGTGACTCGCCGCAAGCTAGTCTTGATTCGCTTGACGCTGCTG", "fluorescence intensity": "5690 a.u."}
{"Sequence": "AAGAGCTTCTTGCGCTTTTTATCCCCATGGACTAGGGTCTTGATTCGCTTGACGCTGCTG", "fluorescence intensity": "3440 a.u."}
{"Sequence": "TGTGGCGATAAGTCCCACGTGAAGGTACAACTTCTCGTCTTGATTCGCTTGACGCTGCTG", "fluorescence intensity": "13300 a.u."}
{"note": "Excerpt of the above (study 2):"}
{"Sequence": "AATCTTAT", "E-score": -0.0295}
{"Sequence": "AAACTAGG", "E-score": -0.161}
{"Sequence": "CAACGTTG", "E-score": 0.0917}
{"Sequence": "TATCTTCA", "E-score": -0.0303}
{"Sequence": "ATCCCGCA", "E-score": 0.148}
{"Sequence": "TCATTCCA", "E-score": -0.0862}
{"Sequence": "CTTGCTCA", "E-score": -0.0693}
{"Sequence": "CCGGGTTC", "E-score": 0.292}
